Assay results pooled from the literature.
Protocols differ between the studies behind these lines. ± marks the error that the study gave.
GRB7 SH2 domain: Growth factor receptor-bound protein 7, SH2 domain (GRB7, Homo sapiens, UniProt Q14451)
UniProt Q14451, sequence (whole entry, looked up): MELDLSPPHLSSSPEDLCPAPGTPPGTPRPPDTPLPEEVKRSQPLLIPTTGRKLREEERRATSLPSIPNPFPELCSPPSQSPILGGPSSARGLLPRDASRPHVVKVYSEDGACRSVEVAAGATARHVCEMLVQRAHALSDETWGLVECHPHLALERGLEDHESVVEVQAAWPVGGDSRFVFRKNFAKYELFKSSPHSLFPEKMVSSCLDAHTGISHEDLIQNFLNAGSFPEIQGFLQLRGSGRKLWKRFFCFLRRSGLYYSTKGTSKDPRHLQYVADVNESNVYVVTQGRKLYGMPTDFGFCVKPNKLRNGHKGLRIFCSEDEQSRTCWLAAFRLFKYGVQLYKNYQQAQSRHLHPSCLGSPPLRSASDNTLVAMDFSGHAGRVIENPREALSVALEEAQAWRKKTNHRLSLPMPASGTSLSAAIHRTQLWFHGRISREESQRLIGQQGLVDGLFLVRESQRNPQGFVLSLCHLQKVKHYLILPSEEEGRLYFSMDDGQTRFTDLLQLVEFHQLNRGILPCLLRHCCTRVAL
UniProt Q9UQQ2, sequence (whole entry, looked up): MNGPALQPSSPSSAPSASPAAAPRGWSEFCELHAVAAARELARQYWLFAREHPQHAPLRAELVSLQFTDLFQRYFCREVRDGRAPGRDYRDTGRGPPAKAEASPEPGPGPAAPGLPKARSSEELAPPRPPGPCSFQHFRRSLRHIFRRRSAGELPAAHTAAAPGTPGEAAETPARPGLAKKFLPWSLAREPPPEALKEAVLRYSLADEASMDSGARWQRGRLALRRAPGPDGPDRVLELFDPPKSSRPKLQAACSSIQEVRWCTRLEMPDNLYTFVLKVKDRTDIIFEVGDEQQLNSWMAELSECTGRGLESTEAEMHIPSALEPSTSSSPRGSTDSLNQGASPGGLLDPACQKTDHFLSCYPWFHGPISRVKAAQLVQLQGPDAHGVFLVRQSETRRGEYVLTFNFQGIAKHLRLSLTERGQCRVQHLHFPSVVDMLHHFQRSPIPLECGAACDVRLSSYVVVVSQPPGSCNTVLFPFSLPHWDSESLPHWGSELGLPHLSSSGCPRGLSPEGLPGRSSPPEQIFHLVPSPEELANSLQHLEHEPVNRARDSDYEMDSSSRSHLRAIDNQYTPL
UniProt P98170, sequence (whole entry, looked up): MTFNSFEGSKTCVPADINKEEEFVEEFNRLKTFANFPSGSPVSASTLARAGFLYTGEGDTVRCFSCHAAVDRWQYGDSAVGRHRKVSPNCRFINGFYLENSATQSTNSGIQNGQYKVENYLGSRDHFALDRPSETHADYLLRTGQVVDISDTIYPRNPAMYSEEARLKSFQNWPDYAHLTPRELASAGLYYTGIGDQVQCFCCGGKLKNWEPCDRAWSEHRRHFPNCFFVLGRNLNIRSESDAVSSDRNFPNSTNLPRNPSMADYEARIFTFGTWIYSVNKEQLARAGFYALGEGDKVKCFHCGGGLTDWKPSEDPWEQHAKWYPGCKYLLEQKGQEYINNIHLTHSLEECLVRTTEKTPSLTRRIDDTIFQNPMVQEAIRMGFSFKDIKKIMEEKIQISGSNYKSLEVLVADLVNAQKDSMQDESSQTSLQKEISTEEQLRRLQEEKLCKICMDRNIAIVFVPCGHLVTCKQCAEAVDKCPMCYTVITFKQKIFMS
UniProt Q9LIQ6, sequence (whole entry, looked up): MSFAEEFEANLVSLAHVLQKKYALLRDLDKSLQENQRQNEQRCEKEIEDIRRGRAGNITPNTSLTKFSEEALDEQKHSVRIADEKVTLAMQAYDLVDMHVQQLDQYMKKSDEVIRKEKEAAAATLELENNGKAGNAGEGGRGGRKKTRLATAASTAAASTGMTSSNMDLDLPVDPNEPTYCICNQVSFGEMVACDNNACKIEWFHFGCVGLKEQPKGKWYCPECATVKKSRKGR
UniProt P62937, sequence (whole entry, looked up): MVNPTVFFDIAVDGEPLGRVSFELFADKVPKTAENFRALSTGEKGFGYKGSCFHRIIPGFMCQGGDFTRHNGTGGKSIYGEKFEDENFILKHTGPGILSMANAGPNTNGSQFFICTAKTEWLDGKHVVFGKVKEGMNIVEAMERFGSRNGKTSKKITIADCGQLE
UniProt Q9H6Q3, sequence (whole entry, looked up): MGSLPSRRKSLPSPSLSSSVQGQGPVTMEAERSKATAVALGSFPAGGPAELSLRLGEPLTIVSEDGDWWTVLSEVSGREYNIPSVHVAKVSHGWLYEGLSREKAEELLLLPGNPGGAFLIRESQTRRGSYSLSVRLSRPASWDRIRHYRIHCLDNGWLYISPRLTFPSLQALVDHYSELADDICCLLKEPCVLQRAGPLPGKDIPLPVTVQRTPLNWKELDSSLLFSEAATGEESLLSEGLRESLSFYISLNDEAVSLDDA
UniProt Q13671, sequence (whole entry, looked up): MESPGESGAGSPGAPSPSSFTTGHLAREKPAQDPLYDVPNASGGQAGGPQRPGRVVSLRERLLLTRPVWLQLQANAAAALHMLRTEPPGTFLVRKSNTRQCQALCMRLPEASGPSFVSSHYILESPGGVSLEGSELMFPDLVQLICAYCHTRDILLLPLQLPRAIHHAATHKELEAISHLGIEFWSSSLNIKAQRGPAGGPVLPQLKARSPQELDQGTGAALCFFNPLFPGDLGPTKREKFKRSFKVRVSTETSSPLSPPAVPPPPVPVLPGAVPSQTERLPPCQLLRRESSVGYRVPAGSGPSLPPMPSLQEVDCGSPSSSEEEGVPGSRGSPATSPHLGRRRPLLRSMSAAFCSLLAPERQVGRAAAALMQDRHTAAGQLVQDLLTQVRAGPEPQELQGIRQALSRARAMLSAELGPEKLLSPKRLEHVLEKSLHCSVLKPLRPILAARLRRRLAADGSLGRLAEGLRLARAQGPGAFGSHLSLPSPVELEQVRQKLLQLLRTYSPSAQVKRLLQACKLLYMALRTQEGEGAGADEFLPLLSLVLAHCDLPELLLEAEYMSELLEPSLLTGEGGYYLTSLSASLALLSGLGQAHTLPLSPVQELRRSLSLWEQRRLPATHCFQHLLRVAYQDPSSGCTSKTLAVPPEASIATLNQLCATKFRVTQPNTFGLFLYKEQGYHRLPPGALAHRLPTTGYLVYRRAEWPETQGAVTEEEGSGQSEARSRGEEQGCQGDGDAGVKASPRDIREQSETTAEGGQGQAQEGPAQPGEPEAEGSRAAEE
UniProt P49116, sequence (whole entry, looked up): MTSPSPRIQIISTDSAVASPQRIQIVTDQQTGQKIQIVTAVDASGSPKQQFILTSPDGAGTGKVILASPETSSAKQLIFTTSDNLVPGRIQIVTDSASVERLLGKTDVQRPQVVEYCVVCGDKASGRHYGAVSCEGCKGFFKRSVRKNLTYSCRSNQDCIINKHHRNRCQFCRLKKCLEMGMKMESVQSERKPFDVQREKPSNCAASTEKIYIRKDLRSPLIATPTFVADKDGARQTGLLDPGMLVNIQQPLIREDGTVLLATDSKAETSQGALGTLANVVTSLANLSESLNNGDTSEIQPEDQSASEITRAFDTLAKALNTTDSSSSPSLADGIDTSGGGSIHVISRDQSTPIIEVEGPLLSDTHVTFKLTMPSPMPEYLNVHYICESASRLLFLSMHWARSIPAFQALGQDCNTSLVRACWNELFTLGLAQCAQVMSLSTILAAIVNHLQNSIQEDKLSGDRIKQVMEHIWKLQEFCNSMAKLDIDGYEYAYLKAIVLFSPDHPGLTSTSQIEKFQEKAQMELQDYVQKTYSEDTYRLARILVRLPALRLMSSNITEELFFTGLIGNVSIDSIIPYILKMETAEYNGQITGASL
UniProt Q9X6J6, sequence (whole entry, unmodified, looked up): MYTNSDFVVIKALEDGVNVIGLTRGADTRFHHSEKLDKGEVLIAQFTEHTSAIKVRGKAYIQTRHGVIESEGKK
UniProt P25440, sequence (whole entry, unmodified, looked up): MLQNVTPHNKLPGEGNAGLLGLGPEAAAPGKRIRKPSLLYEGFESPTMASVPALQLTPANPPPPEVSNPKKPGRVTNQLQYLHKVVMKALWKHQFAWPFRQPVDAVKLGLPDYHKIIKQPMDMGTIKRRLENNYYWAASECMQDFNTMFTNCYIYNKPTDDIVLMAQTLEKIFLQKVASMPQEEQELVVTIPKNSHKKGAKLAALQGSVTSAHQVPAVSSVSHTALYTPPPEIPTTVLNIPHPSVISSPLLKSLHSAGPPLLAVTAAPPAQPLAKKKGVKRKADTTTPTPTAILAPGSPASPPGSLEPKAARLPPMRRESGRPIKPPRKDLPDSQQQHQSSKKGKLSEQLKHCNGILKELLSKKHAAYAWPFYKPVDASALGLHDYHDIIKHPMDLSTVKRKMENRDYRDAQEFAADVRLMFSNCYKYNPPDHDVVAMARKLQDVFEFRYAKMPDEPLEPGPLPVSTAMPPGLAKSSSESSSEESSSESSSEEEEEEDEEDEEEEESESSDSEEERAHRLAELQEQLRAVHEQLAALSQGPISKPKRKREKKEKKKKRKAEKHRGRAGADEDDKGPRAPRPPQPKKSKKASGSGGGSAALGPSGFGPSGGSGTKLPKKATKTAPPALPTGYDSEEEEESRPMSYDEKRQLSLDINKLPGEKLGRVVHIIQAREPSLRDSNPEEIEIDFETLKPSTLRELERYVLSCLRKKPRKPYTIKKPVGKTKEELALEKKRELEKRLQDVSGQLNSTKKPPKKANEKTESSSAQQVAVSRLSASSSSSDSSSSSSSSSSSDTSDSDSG
UniProt P0AD96, sequence (whole entry, unmodified, looked up): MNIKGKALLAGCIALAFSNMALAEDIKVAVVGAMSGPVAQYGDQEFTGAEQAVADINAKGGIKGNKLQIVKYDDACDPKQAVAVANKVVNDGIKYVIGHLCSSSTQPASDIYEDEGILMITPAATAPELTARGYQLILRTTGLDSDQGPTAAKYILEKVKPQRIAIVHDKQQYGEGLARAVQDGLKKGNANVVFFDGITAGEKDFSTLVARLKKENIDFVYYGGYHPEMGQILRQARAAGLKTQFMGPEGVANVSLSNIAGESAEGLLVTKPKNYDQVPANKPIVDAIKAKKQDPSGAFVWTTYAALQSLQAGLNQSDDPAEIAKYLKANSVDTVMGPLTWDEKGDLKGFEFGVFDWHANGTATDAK

CC(C)C[C@H](NC(=O)[C@@H](NC(=O)[C@H](CO)NC(=O)[C@H](CO)NC(=O)[C@@H](NC(=O)[C@H](CC(=O)O)NC(=O)[C@H](CC(C)C)NC(=O)[C@@H]1CCCN1C(=O)[C@H](CO)NC(=O)c1ccc2c(c1)C(=O)OC21c2ccc(N(C)C)cc2Oc2cc(N(C)C)ccc21)[C@@H](C)O)C(C)C)C(=O)N[C@@H](Cc1ccc(OP(=O)(O)O)cc1)C(=O)N[C@H](C(=O)N[C@@H](C)C(=O)N[C@H](C(=O)N[C@@H](CCC(N)=O)C(=O)N1CCC[C@H]1C(=O)N[C@@H](CC(N)=O)C(=O)N[C@@H](CCC(=O)O)C(=O)N[C@@H](CC(=O)O)C(=O)O)C(C)C)[C@@H](C)O  Kd (SH2B3, SH2 domain (Homo sapiens, UniProt Q9UQQ2); binding): 508 nM
O=C(O[C@@H]1Cc2c(O)cc(O)cc2O[C@@H]1c1cc(O)c(O)c(O)c1)c1cc(O)c(O)c(O)c1  Kd (Small ribosomal subunit protein uS2 (RPSA, Homo sapiens, UniProt P08865); binding): 197 ± 60 nM
Fc1ccc([C@@H]2CCNC[C@H]2COc2ccc3c(c2)OCO3)cc1  Kd (snf (Aquifex aeolicus, UniProt O67854, G24D/I359G/N21Y/S256G/T254S); saturation binding): 2340 ± 285 nM
N[C@@H](Cc1c[nH]c2ccccc12)C(=O)O  Kd (Transcription attenuation protein MtrB, Δ71 truncation (mtrB, Geobacillus stearothermophilus, UniProt Q9X6J6); isothermal titration calorimetry; 25 °C, one-site model): 90 ± 20 nM
CCC1=C[C@@H]2CN3CCc4c([nH]c5ccccc45)[C@@](C(=O)OC)(C2)[C@@H]13  Kd (Nuclear receptor subfamily 2 group C member 2, ligand-binding domain (Homo sapiens, UniProt P49116); SPR imaging): 0.0818 nM
C[C@H](N)C(=O)N[C@@H](CCCNC(=N)N)C(=O)N[C@H](C(=O)N[C@@H](CCCC[N+](C)(C)C)C(=O)N[C@@H](CCC(N)=O)C(=O)N[C@H](C(=O)N[C@@H](C)C(=O)N[C@@H](CCCNC(=N)N)C(=O)N[C@@H](CCCCN)C(=O)N[C@@H](CO)C(=O)O)[C@@H](C)O)[C@@H](C)O  Kd (PHD finger protein ING1, PHD finger (163-234) (ING1, Arabidopsis thaliana, UniProt Q9LIQ6); binding, isothermal titration calorimetry; pH 7.0, together with: histone H3 peptide): 860 nM
CC[C@H](C)[C@H](NC(=O)[C@H](CCCNC(=N)N)NC(=O)CNC(=O)[C@H](Cc1c[nH]c2ccccc12)NC(=O)[C@@H]1CSC[C@@H](NC(=O)[C@H](Cc2ccc(O)cc2)NC(=O)[C@H](Cc2c[nH]c3ccccc23)NC(=O)[C@H](CC(C)C)NC(=O)CNC(=O)[C@H](CCCNC(=N)N)NC(=O)c2ccc3c(c2)C(=O)OC32c3ccc(O)cc3Oc3cc(O)ccc32)C(=O)N[C@@H](CC(C)C)C(=O)N[C@@H](CO)C(=O)N1)C(=O)NCC(=O)N[C@@H](CCCNC(=N)N)C(=O)N[C@@H](CCCNC(=N)N)C(=O)NCC(=O)O  Kd (Sortase B (srtB, Staphylococcus aureus, UniProt Q2FZE3); binding, fluorescence polarization; pH 7.5): > 500000 nM
CC[C@H](C)[C@H](NC(=O)[C@H](CC(=O)O)NC(=O)[C@H](Cc1ccccc1)NC(=O)[C@@H](NC(=O)[C@H](CC(N)=O)NC(=O)[C@@H](NC(=O)[C@H](CC(=O)O)NC(=O)c1ccc2c(c1)C(=O)OC21c2ccc(N(C)C)cc2Oc2cc(N(C)C)ccc21)C(C)C)[C@@H](C)O)C(=O)N[C@H](C(=O)N[C@H](C(=O)N[C@@H](Cc1ccc(OP(=O)(O)O)cc1)C(=O)N[C@@H](CC(C)C)C(=O)N[C@@H](CC(C)C)C(=O)N[C@@H](CCC(N)=O)C(=O)NCC(=O)N[C@@H](CCCNC(=N)N)C(=O)N[C@@H](CCCNC(=N)N)C(=O)N[C@@H](CC(C)C)C(=O)N[C@@H](CC(=O)O)C(=O)O)C(C)C)[C@@H](C)O  Kd (GRB7 SH2 domain; binding): 484 nM
Nc1ncnc2c1ncn2[C@@H]1O[C@H](COP(=O)(O)OP(=O)(O)NP(=O)(O)O)[C@@H](O)[C@H]1O  Kd (Cell cycle histidine kinase CckA, G318A; cytoplasmic region (Caulobacter vibrioides, UniProt Q9X688, G318A); isothermal titration calorimetry; Caulobacter crescentus; 12 °C, together with: without c-di-GMP): 25000 nM
CC[C@H](C)[C@H](N)C(=O)O  Kd (livJ (Escherichia coli, UniProt P0AD96, Q172C); fluorescence titration): 200 nM
CSCC[C@H](NC(=O)[C@H](Cc1ccc(OP(=O)(O)O)cc1)NC(=O)CNC(=O)CNC(=O)[C@H](CC(=O)O)NC(=O)[C@H](CO)NC(=O)[C@H](CCC(=O)O)NC(=O)CNC(=O)[C@@H](NC(=O)[C@H](CC(C)C)NC(=O)[C@H](CO)NC(=O)c1ccc2c(c1)C(=O)OC21c2ccc(N(C)C)cc2Oc2cc(N(C)C)ccc21)[C@@H](C)O)C(=O)N[C@@H](CC(=O)O)C(=O)N[C@@H](CCSC)C(=O)N[C@@H](CO)C(=O)N[C@@H](CCCCN)C(=O)N[C@@H](CC(=O)O)C(=O)N[C@@H](CCC(=O)O)C(=O)N[C@@H](CC(=O)O)C(=O)O  Kd (Tyrosine-protein phosphatase non-receptor type 6, SH2 domains (PTPN6, Homo sapiens, UniProt P29350); binding): 1020 nM
CC[C@H](C)[C@@H]1NC(=O)[C@H](Cc2ccc(O)cc2)NC(=O)CSC[C@@H](C(N)=O)NC(=O)CNC(=O)[C@H](Cc2c[nH]cn2)NC(=O)[C@H](CCCNC(=N)N)NC(=O)[C@H](CC(N)=O)NC(=O)[C@@H]2CCCN2C(=O)[C@H](Cc2ccccc2)NC(=O)[C@H]([C@@H](C)O)NC(=O)CNC(=O)[C@H](CC(C)C)NC(=O)[C@@H]2CCCN2C(=O)[C@H]([C@@H](C)O)NC(=O)[C@H](CCCCN)NC1=O  Kd (Vacuolar protein sorting-associated protein 29 (VPS29, Homo sapiens, UniProt Q9UBQ0); ITC; 25 °C): 64 ± 5 nM
CC[C@H](C)[C@H](NC(=O)[C@H](Cc1ccc(OP(=O)(O)O)cc1)NC(=O)[C@H](CCC(=O)O)NC(=O)[C@H](Cc1c[nH]cn1)NC(=O)CNC(=O)[C@H](CC(=O)O)NC(=O)[C@H](CO)NC(=O)[C@H](CO)NC(=O)[C@@H](NC(=O)[C@H](CO)NC(=O)[C@H](CCC(=O)O)NC(=O)c1ccc2c(c1)C(=O)OC21c2ccc(N(C)C)cc2Oc2cc(N(C)C)ccc21)C(C)C)C(=O)N[C@@H](Cc1ccc(O)cc1)C(=O)N[C@H](C(=O)N[C@@H](CC(=O)O)C(=O)N1CCC[C@H]1C(=O)N[C@@H](CCSC)C(=O)N[C@@H](CCC(N)=O)C(=O)N[C@@H](CC(=O)O)C(=O)O)C(C)C  Kd (Ras and Rab interactor 1, SH2 domain (RIN1, Homo sapiens, UniProt Q13671); binding): 1460 nM
CC[C@H](C)[C@H](NC(=O)[C@H](C)N)C(=O)N[C@@H](CO)C(=O)N[C@@H](CO)C(=O)N[C@@H](CO)C(=O)N[C@@H](CO)C(=O)N[C@@H](CS)C(=O)N[C@@H](CCC(=O)O)C(=O)N[C@@H](CC(C)C)C(=O)N1CCC[C@H]1C(=O)N[C@@H](CC(C)C)C(=O)N[C@H](C(=O)N[C@@H](C)C(=O)N[C@H](C(=O)N[C@@H](CCCCN)C(=O)N[C@@H](CCCCN)C(=O)N[C@@H](CCCCN)C(=O)N[C@@H](CCCCNC(=O)CCCCCNC(=S)Nc1ccc2c(c1)C(=O)OC21c2ccc(O)cc2Oc2cc(O)ccc21)C(N)=O)C(C)C)C(C)C  Kd (E3 ubiquitin-protein ligase XIAP, BIR1 domain (XIAP, Homo sapiens, UniProt P98170); fluorescence polarization; BIR domain, together with: FITC-labelled peptide 20 nM): no binding
N.N.[Cl][Pt][Cl]  Kd (Peptidyl-prolyl cis-trans isomerase A (PPIA, Homo sapiens, UniProt P62937); HDX MALDI-MS): 37000 nM
CC[C@H](C)[C@H](NC(=O)[C@H](CC(=O)O)NC(=O)[C@@H](NC(=O)[C@H](CC(N)=O)NC(=O)[C@H](CC(=O)O)NC(=O)[C@H](CC(=O)O)NC(=O)[C@H](Cc1ccccc1)NC(=O)[C@H](CC(C)C)NC(=O)[C@@H](N)CC(N)=O)[C@@H](C)CC)C(=O)N[C@@H](Cc1ccccc1)C(=O)N[C@@H](C)C(=O)N[C@@H](CC(=O)O)C(=O)N[C@@H](CC(C)C)C(=O)N[C@H](C(=O)O)[C@@H](C)O  Kd (SNX27, FERM domain (Homo sapiens, UniProt Q96L92); pH 7.5): 38400 ± 1340 nM
CSCC[C@H](NC(=O)CNC(=O)[C@H](Cc1ccccc1)NC(=O)[C@H](CC(=O)O)NC(=O)CNC(=O)c1ccc2c(c1)C(=O)OC21c2ccc(N(C)C)cc2Oc2cc(N(C)C)ccc21)C(=O)N[C@@H](CO)C(=O)N[C@@H](CCCNC(=N)N)C(=O)N[C@@H](CC(=O)O)C(=O)N[C@H](C(=O)N[C@@H](Cc1ccc(OP(=O)(O)O)cc1)C(=O)N[C@@H](CO)C(=O)N[C@H](C(=O)N[C@@H](CC(=O)O)C(=O)N[C@@H](Cc1ccc(O)cc1)C(=O)N[C@@H](Cc1ccc(O)cc1)C(=O)N[C@@H](CCCNC(=N)N)C(=O)N[C@H](C(=O)N[C@@H](CC(=O)O)C(=O)O)C(C)C)[C@@H](C)O)C(C)C  Kd (Src-like-adapter 2, SH2 domain (SLA2, Homo sapiens, UniProt Q9H6Q3); binding): 1790 nM
Cc1cn([C@H]2C[C@H](O)[C@@H](COP(=O)(O)OP(=O)(O)OP(=O)(O)O)O2)c(=O)[nH]c1=O  Kd (DNA polymerase I, Klenow fragment (polA, Escherichia coli, UniProt P00582, C907S/D424A/E710Q/L744C); nucleotide incorporation, substrate, single-turnover rapid quench; together with: radiolabelled primer-template DNA): 320000 ± 20000 nM
CC[C@H](C)[C@H](NC(=O)[C@H](CC(=O)O)NC(=O)[C@H](C)NC(=O)[C@H](Cc1ccc(OP(=O)(O)O)cc1)NC(=O)[C@H](CCCCN)NC(=O)[C@@H](NC(=O)[C@H](CC(=O)O)NC(=O)CNC(=O)[C@H](CCCCN)NC(=O)[C@H](CCSC)NC(=O)[C@H](CC(=O)O)NC(=O)[C@H](CC(C)C)NC(=O)[C@H](CCSC)NC(=O)c1ccc2c(c1)C(=O)OC21c2ccc(N(C)C)cc2Oc2cc(N(C)C)ccc21)C(C)C)C(=O)N[C@@H](CCC(=O)O)C(=O)N[C@@H](CO)C(=O)N[C@@H](CO)C(=O)N[C@@H](CC(N)=O)C(=O)N[C@@H](CC(=O)O)C(=O)O  Kd (GRB7 SH2 domain; binding): 638 nM
CC(=O)N[C@H](C(=O)N1C[C@H](O)C[C@H]1C(=O)NCc1ccc(-c2scnc2C)cc1)C(C)(C)SCCCCCCNC(=O)C[C@@H]1N=C(c2ccc(Cl)cc2)c2c(sc(C)c2C)-n2c(C)nnc21  Kd (Bromodomain-containing protein 2, BD1 (BRD2, Homo sapiens, UniProt P25440, K107A/Q101K/V106E); binary binding, ITC; 25 °C, BD1 KEA mutant titrated): 35 ± 4 nM

For quick reference, copied from above:
Cc1cn([C@H]2C[C@H](O)[C@@H](COP(=O)(O)OP(=O)(O)OP(=O)(O)O)O2)c(=O)[nH]c1=O  Kd (DNA polymerase I, Klenow fragment (polA, Escherichia coli, UniProt P00582, C907S/D424A/E710Q/L744C); nucleotide incorporation, substrate, single-turnover rapid quench; together with: radiolabelled primer-template DNA): 320000 ± 20000 nM
C[C@H](N)C(=O)N[C@@H](CCCNC(=N)N)C(=O)N[C@H](C(=O)N[C@@H](CCCC[N+](C)(C)C)C(=O)N[C@@H](CCC(N)=O)C(=O)N[C@H](C(=O)N[C@@H](C)C(=O)N[C@@H](CCCNC(=N)N)C(=O)N[C@@H](CCCCN)C(=O)N[C@@H](CO)C(=O)O)[C@@H](C)O)[C@@H](C)O  Kd (PHD finger protein ING1, PHD finger (163-234) (ING1, Arabidopsis thaliana, UniProt Q9LIQ6); binding, isothermal titration calorimetry; pH 7.0, together with: histone H3 peptide): 860 nM
